Assay results pooled from the literature.
Each line is one published result; not all experiments were run side by side. “And” joins repeats or separate records; there may be more than shown. ± marks the error that the study gave.
BIRC2 BIR3 domain: Baculoviral IAP repeat-containing protein 2, BIR3 domain (BIRC2, Homo sapiens, UniProt Q13490)
GRPR: Gastrin-releasing peptide receptor (GRPR, Homo sapiens, UniProt P30550)
NOS3: Nitric oxide synthase 3 (NOS3, Bos taurus, UniProt P29473)
Proline--tRNA ligase: Proline--tRNA ligase (Plasmodium falciparum, UniProt Q8I5R7)
HDAC2: Histone deacetylase 2 (HDAC2, Homo sapiens, UniProt Q92769)
CTSB: Cathepsin B (CTSB, Homo sapiens, UniProt P07858)
CA9: Carbonic anhydrase 9 (CA9, Homo sapiens, UniProt Q16790)

`CN[C@@H](C)C(=O)N[C@H]1CN(C(=O)Cc2ccccc2)CC[C@H]2CC[C@@H](C(=O)NCc3cccc(F)c3)N2C1=O` gave a selectivity ratio of 53 (BIRC2 BIR3 domain; fluorescence polarization; baseline: Ki XIAP over Ki cIAP1).
`CSCC[C@H](NC(=O)[C@H](CC(C)C)NC(=O)[C@H](Cc1c[nH]cn1)NC(=O)[C@@H](C)NC(=O)[C@@H](NC(=O)[C@H](C)NC(=O)[C@H](Cc1c[nH]c2ccccc12)NC(=O)[C@H](CCC(N)=O)NC(=O)[C@H](CC(N)=O)NC(=O)CNC(=O)[C@H](CC(C)C)NC(=O)[C@H](CCCNC(=N)N)NC(=O)[C@H](CCC(N)=O)NC(=O)[C@@H]1CCC(=O)N1)C(C)C)C(N)=O` gave a selectivity ratio of over 200 fold (GRPR; binding; HuTu80 and BALB/3T3 hGRPR; baseline: GRPR over NMBR).
The selectivity ratio of `CN[C@@H](C)C(=O)N[C@H]1CN(C(=O)Cc2ccccc2)CC[C@H]2CC[C@@H](C(=O)NCc3cccc(Br)c3)N2C1=O` is reported as 47 (BIRC2 BIR3 domain; fluorescence polarization; baseline: Ki XIAP over Ki cIAP1).
With `N=C(N)NCCC[C@@H]1NC(=O)[C@H](Cc2c[nH]c3ccccc23)NC(=O)[C@H](CCCNC(=N)N)NC(=O)[C@H](Cc2c[nH]c3ccccc23)NC(=O)[C@H](CCCNC(=N)N)NC(=O)[C@H](Cc2c[nH]c3ccccc23)NC(=O)[C@H](CCCNC(=N)N)NC(=O)[C@H](Cc2c[nH]c3ccccc23)NC(=O)[C@H](CCCNC(=N)N)NC(=O)[C@H](Cc2c[nH]c3ccccc23)NC(=O)[C@H](CCCNC(=N)N)NC(=O)[C@H](Cc2c[nH]c3ccccc23)NC(=O)[C@H](CCCNC(=N)N)NC(=O)[C@H](Cc2c[nH]c3ccccc23)NC(=O)[C@H](CCCNC(=N)N)NC(=O)[C@H](Cc2c[nH]c3ccccc23)NC(=O)[C@H](CCCNC(=N)N)NC(=O)[C@H](Cc2c[nH]c3ccccc23)NC1=O` the selectivity ratio was 14 (SRC (Homo sapiens, UniProt P12931); enzyme activity; baseline: IC50 PKC-alpha over IC50 SRC).
`CN[C@@H](C)C(=O)N[C@H]1CN(C(=O)Cc2ccccc2)CC[C@H]2CC[C@@H](C(=O)NCc3cccc(Cl)c3)N2C1=O` has a selectivity ratio of 68 (BIRC2 BIR3 domain; fluorescence polarization; baseline: Ki XIAP over Ki cIAP1).
For `Cc1cc(N)nc(C[C@@H]2CNC[C@@H]2OCCCCCc2cccc(F)c2)c1`, the selectivity ratio was 37 (NOS3; enzyme activity, inhibitor; baseline: Ki NOS3 over Ki nNOS).
`CN[C@@H](C)C(=O)N[C@H]1CN(C(=O)Cc2ccccc2)CC[C@H]2CC[C@@H](C(=O)NCc3ccc(C(C)(C)C)cc3)N2C1=O` gave a selectivity ratio of 782 (BIRC2 BIR3 domain; fluorescence polarization; baseline: Ki XIAP over Ki cIAP1).
`COc1cncc(-c2cc(F)cc(CNC(=O)c3cc(N4CC[C@@](C#N)(C5CC5)C4=O)cc(C)n3)c2)c1` gave a selectivity ratio of 0.1 (Proline--tRNA ligase; binding, microscale thermophoresis; baseline: human over P. falciparum Kd).
`O=C(CCCCCCN(Cc1ccc([N+](=O)[O-])cc1)Cc1ccc([N+](=O)[O-])cc1)NO` has a selectivity ratio of 2 (HDAC2; deacetylase activity, inhibitor, fluorescence; added: Boc-Lys(Ac)-AMC substrate; baseline: IC50 HDAC2 over IC50 HDAC1).
The selectivity ratio of `CN[C@@H](C)C(=O)N[C@H]1CN(C(=O)Cc2ccccc2)CC[C@H]2CC[C@@H](C(=O)NCc3ccc(Cl)cc3)N2C1=O` is reported as 791 (BIRC2 BIR3 domain; fluorescence polarization; baseline: Ki XIAP over Ki cIAP1).
For `[64Cu+2].c1ccc(CNCc2ccc(CN3CCCN4CCNCCCN(CC4)CC3)cc2)nc1`, the tissue uptake was 2.13 ± 0.31 %ID/g (CXCR4; NOD/SCID mouse, U87 and U87-stb-CXCR4 xenografts, stomach; iv, 60 min, ex vivo).
The selectivity ratio of `O=C(CCCCCCNCc1ccc2c(c1)OCO2)NO` is reported as 6.5 (HDAC2; deacetylase activity, inhibitor, fluorescence; added: Boc-Lys(Ac)-AMC substrate; baseline: IC50 HDAC2 over IC50 HDAC1).
For `COCCCn1nc(I)c2c(N)ncnc21`, the selectivity ratio was 50 fold (RET (Homo sapiens, UniProt P07949); baseline: TRKA over RET).
With `O=C(CCCCCCN(Cc1ccc(F)cc1)Cc1ccc(F)cc1)NO` the selectivity ratio was 2.6 (HDAC2; deacetylase activity, inhibitor, fluorescence; added: Boc-Lys(Ac)-AMC substrate; baseline: IC50 HDAC2 over IC50 HDAC1).
`CN(C)CCN(Cc1ccncc1)Cc1c(Cl)cccc1Cl` has a selectivity ratio of under 2 fold (SLC6A2 (Homo sapiens, UniProt P23975); binding; baseline: Ki SERT over NET).
For `O=C(CCCCCCN(Cc1ccc2c(c1)OCO2)Cc1ccc2c(c1)OCO2)NO`, the selectivity ratio was 8.4 (HDAC2; deacetylase activity, inhibitor, fluorescence; added: Boc-Lys(Ac)-AMC substrate; baseline: IC50 HDAC2 over IC50 HDAC1).
`N[C@@H](CCC(=O)N[C@@H](CS[Se]Cc1ccc(-c2cccc(C(O)c3ccc(Cl)c(Cl)c3)c2)cc1)C(=O)NCC(=O)O)C(=O)O` (stereo partly drawn) gave a selectivity ratio of over 100 (CTSB; enzyme activity, inhibitor; added: glutathione 1 mM; baseline: IC50 cathepsin B over STEP).
`COc1cc(CNC(=O)C[C@H](C)CCC=C(C)C)ccc1OCc1cn(-c2ccc(Br)cc2)nn1` gave a growth percent of 86.3% (UACC-257 melanoma cells; SRB; 10 µM, 48 h).
With `Cc1cc(N2CCC(CO)(C3CC3)C2=O)cc(C(=O)NCc2cc(F)cc(-c3cnn(C)c3)c2)n1` (stereo not drawn) the selectivity ratio was 10.3 (Proline--tRNA ligase; binding, microscale thermophoresis; baseline: human over P. falciparum Kd).
For `CC(C)C[C@H]1CN[C@H](C(N)=O)CSSC[C@@H](N)C(=O)N[C@@H](CCC(N)=O)C(=O)N[C@@H](Cc2c[nH]c3ccccc23)C(=O)N[C@@H](C)C(=O)N[C@@H](C(C)C)C(=O)N[C@H](C)C(=O)N[C@@H](Cc2c[nH]cn2)C(=O)N1`, the selectivity ratio was over 5 fold (GRPR; binding, radioligand binding; transfected BALB/3T3; baseline: GRPR over NMBR affinity).
For `Cc1cc(N)nc(CC2CNCC2OCCNCC(F)(F)c2ccc(F)cc2)c1` (stereo not drawn), the selectivity ratio was 190 (NOS3; hemoglobin capture; baseline: Ki eNOS over Ki nNOS).
With `Cc1cc(N)nc(C[C@@H]2CNC[C@@H]2OCCCCCc2cc(F)cc(Cl)c2)c1` the selectivity ratio was 155 (NOS3; enzyme activity, inhibitor; baseline: Ki NOS3 over Ki nNOS).
`CCc1ccc(CNC(=O)[C@@H]2CC[C@@H]3CCN(C(=O)Cc4ccccc4)C[C@H](NC(=O)[C@H](C)NC)C(=O)N32)cc1` has a selectivity ratio of 155 (BIRC2 BIR3 domain; fluorescence polarization; baseline: Ki XIAP over Ki cIAP1).
`[64Cu+2].c1cnc(CNCc2ccc(CN3CCCN4CCNCCCN(CC4)CC3)cc2)nc1` has a tissue uptake of 0.82 ± 0.09 %ID/g (CXCR4; NOD/SCID mouse, U87 and U87-stb-CXCR4 xenografts, bladder; iv, 90 min, no blocking dose, ex vivo).
`Cc1cc(N2CC[C@](C#N)(C3(C)CC3)C2=O)cc(C(=O)NCc2cc(F)cc(-c3cnn(C)c3)c2)n1` has a selectivity ratio of 3.8 (Proline--tRNA ligase; binding, microscale thermophoresis; baseline: human over P. falciparum Kd).
For `O[C@@H]1[C@H](O)[C@@H](CNC(=S)Nc2ccccc2)N2CCC[C@@H](O)[C@H]12`, the selectivity ratio was 3.1 (Alpha-mannosidase 2 (Homo sapiens, UniProt Q16706); inhibitor; added: fluorogenic mannoside substrate; baseline: lysosomal over Golgi mannosidase Ki).
For `CN(C)CCNC(=O)c1cccc2c(NCCCCc3c(N)nc(N)nc3N)c3ccccc3nc12`, the selectivity ratio was 0.04 (RNA B, slipped CCUG motif; binding, ITC; baseline: Kd RNA A over Kd RNA B).
`Cc1ccc(C[C@H](NC(=O)CN2CCCc3cc4cc(C(=O)NCCNC(=O)CCCC[C@@H]5SC[C@@H]6NC(=O)N[C@@H]65)c(=O)oc4cc32)C(=O)NC/C=C/S(=O)(=O)c2ccccc2)cc1` has a selectivity ratio of 130 (CTSB; inhibitor; kinact/Ki; baseline: rhodesain over target).
The selectivity ratio of `COc1cc(-c2ccnc3nc(Nc4ccc(S(N)(=O)=O)cc4)nn23)cc(OC)c1OC` is reported as 2.3 (CA9; inhibitor; baseline: Ki hCA II over Ki CA9).
`O=C(CCCCCCNCc1ccc(F)cc1)NO` has a selectivity ratio of 6.8 (HDAC2; deacetylase activity, inhibitor, fluorescence; added: Boc-Lys(Ac)-AMC substrate; baseline: IC50 HDAC2 over IC50 HDAC1).
With `CN[C@@H](C)C(=O)N[C@H]1CN(C(=O)Cc2ccccc2)CC[C@H]2CC[C@@H](C(=O)NCc3ccccc3F)N2C1=O` the selectivity ratio was 56 (BIRC2 BIR3 domain; fluorescence polarization; baseline: Ki XIAP over Ki cIAP1).
`O=C(CCCCCCNCc1ccc(-c2ccccc2)s1)NO` gave a selectivity ratio of 14 (HDAC2; deacetylase activity, inhibitor, fluorescence; added: Boc-Lys(Ac)-AMC substrate; baseline: IC50 HDAC2 over IC50 HDAC1).
With `NS(=O)(=O)c1ccc(Nc2nc3nccc(-c4ccc5ccccc5c4)n3n2)cc1` the selectivity ratio was 102 (CA9; inhibitor; baseline: Ki hCA I over Ki CA9).
For `COc1cc(CNC(=O)C[C@H](C)CCC=C(C)C)ccc1OCc1cn(-c2ccccc2F)nn1`, the growth percent was 45.2% (SF-295 CNS cancer cells; SRB; 10 µM, 48 h).
With `Cc1cc(N2CC[C@@](C#N)(C3CC3)C2=O)cc(NC(=O)Cc2ccccc2)n1` the selectivity ratio was 2.1 (Proline--tRNA ligase; aminoacylation activity, inhibitor, malachite green; baseline: human over P. falciparum IC50).
`O=C(O)C(=O)O.O=C(c1ccc(NCCF)cc1)C1CCN(C2Cc3ccccc3CC2O)CC1` (single isomer, unassigned; (-)) has a selectivity ratio of > 5000 and 6030 (sigma-1 receptor and VAChT; binding; guinea pig; baseline: Ki VAChT over Ki sigma-1).
`Cc1cc(N)nc(C[C@@H]2CNC[C@@H]2OCCC/C=C/c2cccc(F)c2)c1` has a selectivity ratio of 121 (NOS3; enzyme activity, inhibitor; baseline: Ki NOS3 over Ki nNOS).
With `CN[C@@H](C)C(=O)N[C@H]1CN(C(=O)Cc2ccccc2)CC[C@H]2CC[C@@H](C(=O)NCc3ccc(OC)cc3)N2C1=O` the selectivity ratio was 904 (BIRC2 BIR3 domain; fluorescence polarization; baseline: Ki XIAP over Ki cIAP1).
The selectivity ratio of `Cc1cc(CNCCCCCCC(=O)NO)ccc1F` is reported as 5.6 (HDAC2; deacetylase activity, inhibitor, fluorescence; added: Boc-Lys(Ac)-AMC substrate; baseline: IC50 HDAC2 over IC50 HDAC1).

Repeated from above:
`CCc1ccc(CNC(=O)[C@@H]2CC[C@@H]3CCN(C(=O)Cc4ccccc4)C[C@H](NC(=O)[C@H](C)NC)C(=O)N32)cc1` has a selectivity ratio of 155 (BIRC2 BIR3 domain; fluorescence polarization; baseline: Ki XIAP over Ki cIAP1).
`[64Cu+2].c1cnc(CNCc2ccc(CN3CCCN4CCNCCCN(CC4)CC3)cc2)nc1` has a tissue uptake of 0.82 ± 0.09 %ID/g (CXCR4; NOD/SCID mouse, U87 and U87-stb-CXCR4 xenografts, bladder; iv, 90 min, no blocking dose, ex vivo).
`Cc1cc(N2CC[C@](C#N)(C3(C)CC3)C2=O)cc(C(=O)NCc2cc(F)cc(-c3cnn(C)c3)c2)n1` has a selectivity ratio of 3.8 (Proline--tRNA ligase; binding, microscale thermophoresis; baseline: human over P. falciparum Kd).
For `O[C@@H]1[C@H](O)[C@@H](CNC(=S)Nc2ccccc2)N2CCC[C@@H](O)[C@H]12`, the selectivity ratio was 3.1 (Alpha-mannosidase 2 (Homo sapiens, UniProt Q16706); inhibitor; added: fluorogenic mannoside substrate; baseline: lysosomal over Golgi mannosidase Ki).
For `CN(C)CCNC(=O)c1cccc2c(NCCCCc3c(N)nc(N)nc3N)c3ccccc3nc12`, the selectivity ratio was 0.04 (RNA B, slipped CCUG motif; binding, ITC; baseline: Kd RNA A over Kd RNA B).
